Measured values from different studies.
Parts stem from different laboratories: compare values within a part only.

Block 1
Target: Fragile X messenger ribonucleoprotein 1, C-terminal low-complexity region (Fmr1, Mus musculus, UniProt P35922)
Technique: RNA Bind-n-Seq
Molecule type: RNA
Sample: in vitro
Concentration: 200 nM
Notes: whole 134-nt RNA, ends assumed
Added: 150 mM LiCl
Relative to: input library
Direction: higher = stronger binding
Each molecule: 7-deaza-guanosine replaces G
Sequence | log2 enrichment
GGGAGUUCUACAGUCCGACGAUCACCAUGAAAGUGGGCAUCUUUGGGAAGUGGGGCAAGGGGGGGAUAGGGAGGGGGGUAACACUUUGGGAACAGGUGGUCCCAGGUCGUUUCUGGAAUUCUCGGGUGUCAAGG | 1.48
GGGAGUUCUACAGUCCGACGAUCUCAAGUCCUGUGCUACACAUCGUAUGUACCGAAUCGGGAAGGGAAGGGGAAGGGGAAAGUAUUAUGUUACGCCGUUCGGAUCUGCACUUCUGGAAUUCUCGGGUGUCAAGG | -0.544
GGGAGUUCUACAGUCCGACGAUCACCAUGCAGGUGGGCAUCUUUGGGAAGUGGGGCAAGGGGGGGAUAGGGAGGGGGGUAACAGUUUGGGAACAGGUGGUCCCAGGUCGUUUCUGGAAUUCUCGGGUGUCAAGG | 1.49
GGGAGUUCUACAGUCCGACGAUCACCAUGCAGGUGGGCAUCUUUGGGAAGUGGGGCAAGGGGGGGAUAGGGAGGGGGGUAACACUUUGGGAGCAGGUGGUCCCAGGUCGUUUCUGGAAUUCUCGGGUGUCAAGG | 1.6
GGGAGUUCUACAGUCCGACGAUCUGGGAGGUGGAUUUUGUUUAUUUUUUUAGCUCAUUUCCAGGGGUGGGAAUUUUUUUUUAAUGUGUGUCAUGAAUAAAGUUGUUUUUGAAAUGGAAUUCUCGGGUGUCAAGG | -0.295
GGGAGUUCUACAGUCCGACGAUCGUCCUGUGCUACACAUCGUAUGUACCGAAUCAAACCCCCAAAUUUUUUUAAACCCAAAAAAGUAUUAUGUUACGCCGUUCGGAUCUGCACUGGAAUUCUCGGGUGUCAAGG | 1.15
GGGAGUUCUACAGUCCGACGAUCUGGCCCUGGUGGCAUGCCGGGAGGAAGAGGUGGCCUCAUGGAUCGUGGUGGUCCCGGUGGAAUGUUCAGAGGUGGCCGUGGUGGAGACAGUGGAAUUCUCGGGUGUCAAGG | -0.286
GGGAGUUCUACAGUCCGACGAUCUCAAGUCCUGUGCUACACAUCGUAUGUACCGAAUCGGGUGGGUUUGGGUUUGGGAAAGUAUUAUGUUACGCCGUUCGGAUCUGCACUUCCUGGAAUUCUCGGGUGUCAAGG | -1.56
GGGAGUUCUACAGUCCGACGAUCUAACUUUAGUGGAGGAUCUGAUGGAUAUGGCAGUGGACGUGGAUUUGGGGAUGGCUAUAAUGGGUAUGGAGGAGGACCUGGAGGUGGCAAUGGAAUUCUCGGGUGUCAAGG | 0.32
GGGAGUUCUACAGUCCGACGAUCGAAACUACCCGUGUGUAAAAAGAAGAUUGGCUUAAAAUGGCUACUGUGAUGGGAACAGUGUCUUAGGGAGAUGCAGCUUGGACUUGAGGUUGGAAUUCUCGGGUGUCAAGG | 1.18
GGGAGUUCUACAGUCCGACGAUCUGGCCCUGGUGGCAUACGGGGAGGAAGAGGUGGCCUCAUGGAUCGUGGUGGUCCCGGUGGAAUGUUCAGAGGUGGCCGUGGUGGAGACAGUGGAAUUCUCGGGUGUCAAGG | 0.0652

Block 2
Target: RING finger protein unkempt homolog, zinc fingers 1-6, SBP tag (UNK, Homo sapiens, UniProt Q9C0B0, residues 30-357)
UniProt Q9C0B0, sequence (30-357, looked up): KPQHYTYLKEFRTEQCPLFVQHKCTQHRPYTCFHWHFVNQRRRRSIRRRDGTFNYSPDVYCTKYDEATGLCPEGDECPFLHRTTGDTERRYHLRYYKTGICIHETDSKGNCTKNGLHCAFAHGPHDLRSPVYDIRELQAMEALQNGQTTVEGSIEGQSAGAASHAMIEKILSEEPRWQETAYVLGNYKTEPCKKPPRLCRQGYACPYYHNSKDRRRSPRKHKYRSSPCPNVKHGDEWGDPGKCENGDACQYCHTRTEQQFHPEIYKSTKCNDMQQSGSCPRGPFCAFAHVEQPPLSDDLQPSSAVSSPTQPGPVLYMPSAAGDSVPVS
Technique: RNA Bind-n-Seq
Molecule type: RNA
Sample: in vitro
Concentration: 100 nM
Notes: RNA with constant flanks, vertebrate orthologous sites, ends assumed
Relative to: input RNA pool
Direction: higher = stronger binding
Sequence | bound/input enrichment [ratio]
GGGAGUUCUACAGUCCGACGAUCAAUCAUGGAGGAAAAGCUAUUAGAACAAUUUCAUGAUGUUGAUAUGAGUUUAUUUUUAGUUCAUUAGUUUAGAAAUUUUAGGGUUCUUGUUUAGCAACAAUAGCAACUAACUGUUAAGUACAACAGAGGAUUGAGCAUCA | 1.53
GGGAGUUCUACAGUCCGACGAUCAGUGGCAUUUGCUCCACUAAAAAGAGUAAAAUUAAGUCCCCCAAAUAUAAGACUCCUAAGUAGCUAUUAGAAAAAUUAAAAUGUUUAACUUUUGUAAAUCACCUGAUACCACCACACACUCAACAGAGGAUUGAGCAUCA | 3.55
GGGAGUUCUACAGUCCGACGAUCUAAGAAUUGGAAGAAUUUUAUAGGAGGUGGUAGUCAAAAAGUAGAAGCAGUUUGGAAGAGUGGUUACAAAUAUCAAGAGCCAGGUGGCUAAAAGGUGGAGCUAUAGGUCAUUGAAGCUCACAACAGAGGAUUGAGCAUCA | 0.588
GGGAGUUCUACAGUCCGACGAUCAGCAACCCAAGGAUUCAGGACUGACCUUAUAAAUACACCAAGUAGAUAUGGAACUAACAAUAGAAUUGGACAACCAAGACCUUAGUGUACUCUGUUUUUAUAAGGAAUUUUGACUCCUUGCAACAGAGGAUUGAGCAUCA | 0.586
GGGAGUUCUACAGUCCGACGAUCUUACAGUCAUUGAUGGACUCUAUUUUUUUAUUAUUACUUGGACCUUGGUCGUUUUUAUACUAGCAAAAUGUCUUGUUUUAAUUUGUGUUUUUUUUGGGGGGGGGAGGGAGUGAACUUGCUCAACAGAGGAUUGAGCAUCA | 2.46
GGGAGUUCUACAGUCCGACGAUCAAAUUCAACAAAAAUGUUUCCACUGGGUUUGCUUUGUAAGAAAAAAUGAACCCGAACAUAUAGAGCUUUUUAAUAGCACUAACCAAUGCCUUUUUAGAUGUAUUUUUGAUGUAUAUAUCUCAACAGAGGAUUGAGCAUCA | 0.575
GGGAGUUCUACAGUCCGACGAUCAUGUUCUUGUUCCUGUGGACUUUAAAAUAGCCACAGAACUUAACUUUUUCCAAAUGAUUCUAGUAAUUGCCUAGAAAUAUCUUUCUCUUCCUGUUAUUUAUCAAUUUUUCCCAGUAUUUUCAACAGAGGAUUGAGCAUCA | 1.15
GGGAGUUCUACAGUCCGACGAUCCAUAAUCACUCUAAUUGUAAUCUGAUAAAGUGUAACAUUGUGUAGCCUUUUUGUAUAAAAUAGACAAAUAGAAAUGGUCCAAUUAGUUUCCUUUUUAAUAUGCUUAAAAUAAGCAGGUGGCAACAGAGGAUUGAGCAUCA | 2.43
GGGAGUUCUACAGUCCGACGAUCAGUGUCAUACCAGCAUAUUUACUAGUUUGUGUGCACAGCUGAAAAAAAGAGGUAACUGCUUAGUUAUACUCCACAAAGUCUUUCAGAUUUGUUACCUUUUCAUUCCCACACUGACACUACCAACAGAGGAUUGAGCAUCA | 0.399
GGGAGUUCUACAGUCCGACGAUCAAUAGGAGCAGCCUAGGCUGCUUGAGCUUUGGGAAAUGAGCUUUGCUUUUUAUAUUUAAAUAGGAUACUUUUAUAUGAUGGGUGCUUUCGAGCGUGAAUGCGGCAGGCUCUCCAUUUCAGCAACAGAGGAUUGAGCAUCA | 0.823
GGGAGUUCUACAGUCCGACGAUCCCGAAAGGCCAAAUUCCCUCCUCCCUUCUUCUGCUUCUACCAACUGGAAGCACAGAAAACUAGAAUUUCAUUUAUUUUGUUUUUAAAAAAAUCUAUGUUGAUUUCUUGUAACAUCCAAUACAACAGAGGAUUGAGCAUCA | 0.4

Block 3
Target: Hepatocyte nuclear factor 3-alpha (Foxa1, Mus musculus, UniProt P35582, residues 1-468, full length assumed)
Technique: EMSA with sequencing
Molecule type: double-stranded DNA, one strand shown
Sample: in vitro
Concentration: 10 and 20 nM
Notes: whole designed probe, mean of two concentrations, ends assumed
Relative to: negative control set to 0
Direction: higher = stronger binding
Construct (chain): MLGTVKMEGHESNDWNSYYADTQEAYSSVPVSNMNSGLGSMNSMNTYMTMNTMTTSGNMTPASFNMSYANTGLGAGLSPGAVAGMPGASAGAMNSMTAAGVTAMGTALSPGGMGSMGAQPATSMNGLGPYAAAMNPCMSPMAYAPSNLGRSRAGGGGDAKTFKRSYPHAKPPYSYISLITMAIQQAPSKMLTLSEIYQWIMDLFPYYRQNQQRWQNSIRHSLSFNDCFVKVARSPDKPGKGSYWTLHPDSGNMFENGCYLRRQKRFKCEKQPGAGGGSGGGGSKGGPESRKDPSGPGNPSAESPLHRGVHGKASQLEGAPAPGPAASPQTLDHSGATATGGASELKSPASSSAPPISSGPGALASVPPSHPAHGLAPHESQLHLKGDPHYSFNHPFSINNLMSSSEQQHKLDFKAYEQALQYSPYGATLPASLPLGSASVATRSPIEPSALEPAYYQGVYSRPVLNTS
Sequence | normalised bound fraction [ratio]
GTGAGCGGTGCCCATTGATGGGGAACGTAACTGTGAGATTTCTGAATTTACAACCTCCCTACAGGAAGTACCAGGTGGCCACGAAAGGCAGCATGGTCCCCATCTCTAATTAAGCTAATGTAAACAAGTGCCACAAGATGGCGCCAAACCACAGATGAAACTGACGCCAATTTGGATTCTTTGGGTGGATGGATCTCCCAGAACTTCCAGCTGGCTAGATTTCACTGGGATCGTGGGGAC | 0.466
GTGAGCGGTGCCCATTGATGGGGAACCACTAGCCAAGCAAATGCTACCTTTCCTAAATTACGCCGTGGTATTGTGTACGACAGCAGCAGGGTTGCTATTTTAAAATGGGATTGCGTAAAATAAACATGTGACAGGAAGTACCCAGATGCTAAGTTGATGATTAATTGATGCTCTGGTACGGCCTCGTGCTTTCCAGTGCTTCCATTTGTGTGACGATCCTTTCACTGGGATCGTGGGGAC | 0.258
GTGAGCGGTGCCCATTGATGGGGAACTTAATAAAGCAGCAAGACCAGAGGTTGGGTTCTTGTATTGTTGCTTGAAGCAGTGTTAAAGATACACCGACATGACTAAAATGCATTGCTGAGTAATCTAGCACGGATTTTAAAGTTTAATATGATTAATGCAACTTGATGCCAAACTCTGAATGTCTCCTAAGGCTTCCAAGTTACTGAAAAGCAGCCAATATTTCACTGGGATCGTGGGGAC | -0.0667
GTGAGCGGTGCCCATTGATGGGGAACTGATGAGAAACATGATAATTATTTAGTCTGAAAGGATCTTCTCCAATAATTTTTTTTTGTCGTGATTCTCCACCCCCACATTCCTGACTAAATGCAAACAAACCTAAATTGAGGGAAATTCTATGCAATACCTAACCATTATTCATCAAATGTACACAGGAGTACAGTGACACAATCATGGTTCACTGTAACCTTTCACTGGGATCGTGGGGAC | 0.341
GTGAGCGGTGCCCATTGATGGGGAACAGATTGCTTTGTGATTGTTTTGCCAGATTTTGCTTTCACCCACAAAAACACTAAGCTCTGCCAACCAGTTCGGCCATTTTGTAAGTTAGCAAAATAATCTCTAAAGTGAAATGGCGGCTTTTGGGCGGGGCTCCCACAGGCTGGCTCCTTTTAAGTGGAATGTTGCTGTGCTGCCCTCTTGTGGCCATTTGGGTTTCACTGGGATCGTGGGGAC | -0.0267
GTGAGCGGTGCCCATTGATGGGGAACCTGCAACCATATTTTGAAGGCTATGAGCCTTTCCTTTTTCCTCAACACTGTATCCCCTTCCTGGCAATGTGCCTGGCACAGAAGAAATGCTCAGTAAATATTGGCTGAACAAACAGATGAATGTCTATAGCCCACTTTGCTGGGAGAAGTGGAAGGAGGAGAGATTCCATTGCATATTAGAATTCTGTGTCTTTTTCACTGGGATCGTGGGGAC | 0.351
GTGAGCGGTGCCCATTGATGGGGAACCTGTATGTCATCTTGCTCCTGGGCCACCTGACTGATGTTTAATGCCTGGATATTTGCTTTCACCTCTGCATGACCAAGCCTTGGCCAAGTCACTGTTGACTCAGTTGCAACATCTGTCCCCTGCTGAGGGCTGTTGTAGCTTTCATAGCTCACAGTCCAGCTTGAATCTAACCTTTTCTGTGGTCATTCAGAGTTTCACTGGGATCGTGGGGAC | 0.255

Block 4
Target: Sal-like protein 4, full length isoform A (SALL4, Homo sapiens, UniProt Q9UJQ4, residues 1-1053)
UniProt Q9UJQ4, sequence (whole entry, looked up): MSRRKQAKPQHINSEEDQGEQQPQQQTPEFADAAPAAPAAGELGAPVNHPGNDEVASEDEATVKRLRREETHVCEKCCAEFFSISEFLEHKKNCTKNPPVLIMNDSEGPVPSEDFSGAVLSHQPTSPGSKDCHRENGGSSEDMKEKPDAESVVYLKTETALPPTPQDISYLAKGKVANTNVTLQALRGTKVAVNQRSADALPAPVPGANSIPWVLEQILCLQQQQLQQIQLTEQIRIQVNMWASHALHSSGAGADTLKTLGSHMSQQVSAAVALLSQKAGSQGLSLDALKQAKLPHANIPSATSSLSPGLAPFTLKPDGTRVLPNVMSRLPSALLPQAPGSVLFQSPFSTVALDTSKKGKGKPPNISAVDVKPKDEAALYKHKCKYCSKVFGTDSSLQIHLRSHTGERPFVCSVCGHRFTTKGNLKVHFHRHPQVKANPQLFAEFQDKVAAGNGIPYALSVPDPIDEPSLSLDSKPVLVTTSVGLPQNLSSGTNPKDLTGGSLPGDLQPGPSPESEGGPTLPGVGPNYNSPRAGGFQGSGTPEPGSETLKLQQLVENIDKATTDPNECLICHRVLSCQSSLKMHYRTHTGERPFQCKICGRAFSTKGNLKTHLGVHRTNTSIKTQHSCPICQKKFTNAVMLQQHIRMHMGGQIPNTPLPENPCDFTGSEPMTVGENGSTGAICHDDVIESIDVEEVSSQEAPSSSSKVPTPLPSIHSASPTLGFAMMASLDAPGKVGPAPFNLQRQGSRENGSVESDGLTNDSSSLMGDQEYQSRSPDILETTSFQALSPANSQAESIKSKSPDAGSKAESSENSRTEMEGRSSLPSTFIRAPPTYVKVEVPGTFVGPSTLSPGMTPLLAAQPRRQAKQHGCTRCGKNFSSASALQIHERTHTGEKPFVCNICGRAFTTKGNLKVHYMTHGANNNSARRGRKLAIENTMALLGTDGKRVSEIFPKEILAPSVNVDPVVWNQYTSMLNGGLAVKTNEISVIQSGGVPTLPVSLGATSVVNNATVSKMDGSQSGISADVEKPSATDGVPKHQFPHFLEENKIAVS
Technique: universal PBM
Molecule type: double-stranded DNA, one strand shown
Sample: in vitro
Concentration: 600 nM
Notes: 8-mer, flanks averaged, mean of replicates
Direction: higher = stronger binding
Sequence | E-score
CACCCTAA | -0.0879
AAGGCCCC | -0.325
GGCCCTCA | -0.344
AAGGGCCC | -0.249
GGTTATAA | 0.295
CAGAGACA | -0.123
AACGGCTT | -0.18
CATTTAAG | 0.21
AACCCTAA | 0.0433
GGTGGCAA | -0.179
CAAGCTGC | -0.195
CGGGTAGA | -0.106
ACGATTCT | 0.104
AGTCGTCC | -0.123
TATGCAGA | 0.257
GCGACCAA | -0.193
AACCCCAG | -0.288
CAAGGACA | -0.0865
CATTAGGC | -0.0768
GTGAGTCA | -0.0833
